{"data": "Measurements of several laboratories", "B1": "UGT1A9 (Homo sapiens, UniProt O60656); chain GKLLVVPMDGSHWFTMRSVVEKLILRGHEVVVVMPEVSWQLGRSLNCTVKTYSTSYTLEDLDREFKAFAHAQWKAQVRSIYSLLMGSYNDIFDLFFSNCRSLFKDKKLVEYLKESSFDAVFLDPFDNCGLIVAKYFSLPSVVFARGILCHYLEEGAQCPAPLSYVPRILLGFSDAMTFKERVRNHIMHLEEHLLCHRFFKNALEIASEILQTPVTEYDLYSHTSIWLLRTDFVLDYPKPVMPNMIFIGGINCHQGKPLPMEFEAYINASGEHGIVVFSLGSMVSEIPEKKAMAIADALGKIPQTVLWRYTGTRPSNLANNTILVKWLPQNDLLGHPMTRAFITHAGSHGVYESICNGVPMVMMPLFGDQMDNAKRMETKGAGVTLNVLEMTSEDLENALKAVINDKSYKENIMRLSSLHKDRPVEPLDLAVFWVEFVMRHKGAPHLRPAAHDLTWYQYHSLDVIGFLLAVVLTVAFITFKCCAYGYRKCLGKKGRVKKAHKSKTH", "note": "Each line is one published result; not all experiments were run side by side. ± marks the error that the study gave."}
{"Substance": "COc1ccc(CS(=O)(=O)c2ccc3ccccc3c2)cc1N", "target or system": "HUVEC", "assay": "cell growth or viability, MTS", "conditions": "48 h", "endpoint": "IC50", "result": "0.416 µM"}
{"Substance": "COc1ccc2cc3[n+](cc2c1OCCc1cn(Cc2cccc(C(F)(F)F)c2)nn1)CCc1cc2c(cc1-3)OCO2", "target or system": "HUVEC", "assay": "cell growth or viability, MTT", "endpoint": "IC50", "result": "42.6 µM"}
{"Substance": "VEGF", "target or system": "HUVEC", "test system": "Matrigel", "conditions": "10 ng/mL, 5 min bolus then 8 h washout", "scale": "baseline: control media", "endpoint": "tube length", "result": "1.2 fold"}
{"Substance": "COc1ccc(C[S+]([O-])c2ccc3ccccc3c2)cc1N (stereo not shown)", "target or system": "HUVEC", "assay": "cell growth or viability, MTS", "conditions": "48 h", "endpoint": "IC50", "result": "5.6 µM"}
{"Substance": "COC(=O)c1ccc(Cn2cc(CCOc3c(OC)ccc4cc5[n+](cc34)CCc3cc4c(cc3-5)OCO4)nn2)cc1", "target or system": "HUVEC", "assay": "cell growth or viability, MTT", "endpoint": "IC50", "result": "48.9 µM"}
{"Substance": "LRRFSTMPFMFTNINNVTNF", "target or system": "HUVEC", "assay": "cell migration, real-time cell analysis", "test system": "peptide", "conditions": "50 µM, together with: full medium chemoattractant", "scale": "baseline: vehicle", "endpoint": "inhibition", "result": "96.08 ± 0.15%"}
{"Substance": "COc1ccc2cc3[n+](cc2c1OCCc1cn(Cc2ccc(C(F)(F)F)cc2)nn1)CCc1cc2c(cc1-3)OCO2", "target or system": "HUVEC", "assay": "cell growth or viability, MTT", "endpoint": "IC50", "result": "14.4 µM"}
{"Substance": "LRRFSTMPFMFVNINNVVNF", "target or system": "HUVEC", "assay": "cell proliferation, WST-1", "test system": "peptide", "conditions": "100 µM, 72 h", "scale": "baseline: vehicle", "endpoint": "inhibition", "result": "62.2 ± 0.64%"}
{"Substance": "COc1ccc(CSc2ccc3ccccc3c2)cc1N", "target or system": "HUVEC", "assay": "cell growth or viability, MTS", "conditions": "48 h", "endpoint": "IC50", "result": "90.4 µM"}
{"Substance": "LRRFSTMPFMFGNINNVGNF", "target or system": "HUVEC", "assay": "cell migration, real-time cell analysis", "test system": "peptide", "conditions": "50 µM, together with: full medium chemoattractant", "scale": "baseline: vehicle", "endpoint": "inhibition", "result": "87.9 ± 0.7%"}
{"Substance": "B1 (UGT1A9)", "target or system": "Oc1ccc2c(c1)OC[C@H]1c3cc4c(cc3O[C@@H]21)OCO4", "assay": "steady-state kinetics", "conditions": "pH 7.4, 37 °C", "endpoint": "Vmax/Km", "result": "75 µL/min/mg"}
{"Substance": "COc1ccc(C[S+]([O-])c2ccc3cc(Br)ccc3c2)cc1N (stereo not shown)", "target or system": "HUVEC", "assay": "cell growth or viability, MTS", "conditions": "48 h", "endpoint": "IC50", "result": "2.5 µM"}
{"Substance": "COc1ccc2cc3[n+](cc2c1OCCc1cn(Cc2ccc(C)cc2)nn1)CCc1cc2c(cc1-3)OCO2", "target or system": "HUVEC", "assay": "cell growth or viability, MTT", "endpoint": "IC50", "result": "146 µM"}
{"note": "A few entries again:"}
{"Substance": "COc1ccc2cc3[n+](cc2c1OCCc1cn(Cc2ccc(C(F)(F)F)cc2)nn1)CCc1cc2c(cc1-3)OCO2", "target or system": "HUVEC", "assay": "cell growth or viability, MTT", "endpoint": "IC50", "result": "14.4 µM"}
